Measurements gathered from unrelated publications.
Each line is one published result; not all experiments were run side by side. “And” joins repeats or separate records; there may be more than shown. Numbers after ± are the reported error.
UCHL1: Ubiquitin carboxyl-terminal hydrolase isozyme L1 (UCHL1, Homo sapiens, UniProt P09936)
Sequence of UniProt P09936 (whole entry, looked up): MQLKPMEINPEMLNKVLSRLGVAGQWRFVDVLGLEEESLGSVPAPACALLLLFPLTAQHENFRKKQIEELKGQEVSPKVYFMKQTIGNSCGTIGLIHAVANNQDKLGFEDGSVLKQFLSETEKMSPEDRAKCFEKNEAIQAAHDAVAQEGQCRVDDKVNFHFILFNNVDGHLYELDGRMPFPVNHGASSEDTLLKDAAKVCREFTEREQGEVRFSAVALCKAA

SMILES | target or system | assay | conditions | how to read | endpoint | value
CC[C@@H](C)[C@H](NC(=O)c1cc(Cl)ccc1OCCNC(=O)OC(C)(C)C)C(=O)Nc1ccc([N+](=O)[O-])cc1Cl | MCF7 | – | up to 10 µM, 72 h | – | antiproliferative activity | inactive
O=C(O)c1ccccc1Nc1cccc(C(F)(F)F)c1 | MCF7 | firefly luciferase reporter | 50 µM, 6 h | reference: vehicle | TEAD reporter activity | 95.8 ± 2.4%
COc1cccc2c1C(=O)c1c(O)c3c(c(O)c1C2=O)C[C@@](O)(C(=O)CO)C[C@@H]3O[C@H]1C[C@H](N)[C@H](O)[C@H](C)O1 | MCF7 | flow cytometry | 4.29 µM (IC50), 72 h | – | cells in S phase | 24.8%
CCOC(=O)c1nn(-c2cccc(Cl)c2)/c(=N/N=C(\C)c2ccc(NC(=O)c3ccccc3)cc2)s1 | MCF7 | MTT | 5 µM | – | cytotoxicity | 97.5%
CC(=O)c1nn(-c2ccc(Cl)cc2)/c(=N/N=C(\C)c2ccc(NC(=O)c3ccc(Cl)cc3)cc2)s1 | MCF7 | – | 10 µM | – | toxicity | 77.5%
C=CC(=O)c1cccnc1Nc1cc(F)ccc1OC | MCF7 | firefly luciferase reporter | 50 µM, 6 h | reference: vehicle | TEAD reporter activity | 70.3 ± 3.5%
CCN1C(=O)C(C)SC1=NN=C(C)c1c(O)c2ccccc2oc1=O (stereo not shown) | MCF7 | cell growth, MTT | – | reference: IC50 BJ-1 over MCF7 | selectivity index | > 13.5
CC(C)(C)c1ccc(CN2CCN(C(c3ccccc3)c3ccc(Cl)cc3)CC2)cc1 (stereo not shown) | MCF7 | – | 72 h | – | EC50 | 19100 ± 1450 nM
O=C1/C(=C/c2ccc3ccccc3c2O)NC(=S)N1c1ccccc1 | MCF7 | – | – | reference: BJ1 IC50 over MCF7 IC50 | selectivity index | 1.3
C[C@@H]1CC[C@@H]([C@@](O)(CNCc2ccccc2)COCc2ccccc2)[C@H](OCc2ccccc2)C1 | MCF7 | cell growth, inhibitor, MTT | 72 h | – | IC50 | 3690 nM
O=c1ccn(Cc2cn(-c3cc4ccccc4oc3=O)nn2)c(=O)[nH]1 | MCF7 | NCI60 single-dose screen | 10 µM | – | growth percentage | 95.8%
O=[N+]([O-])c1cc(Br)c(O)c(C=NNc2ccc(C(F)(F)F)cc2)c1 | MCF7 | annexin V | IC50, 24 h | – | early apoptotic cells | 61.1%
CC(=NN=c1sc(N=Nc2ccc(C)cc2)c(C)n1C)c1c(O)c2ccccc2oc1=O | MCF7 | cell growth, MTT | – | reference: IC50 BJ-1 over MCF7 | selectivity index | > 4.29
C=CC(=O)c1cccnc1Nc1cc(NC(=O)CCCCCC)ccc1OC | MCF7 | firefly luciferase reporter | 100 µM, 6 h | reference: vehicle | TEAD reporter activity | 11.1 ± 1.6%
C[C@@H]1CC[C@@H]([C@](C)(O)CNCc2cccc(F)c2)[C@H](OCc2ccccc2)C1 | MCF7 | cell growth, inhibitor, MTT | 72 h | – | IC50 | 3540 nM
CC(=O)Nc1ccc(/C(C)=N/N=c2\sc(C(C)=O)nn2-c2ccc(C)cc2)cc1 | MCF7 | MTT | 1.25 µM | – | cytotoxicity | 50.5%
CC/C(=C(\c1ccc(O)cc1)c1ccc(OCCN(C)C)cc1)c1ccccc1 | MCF7 | – | 5 µM, 5 days | reference: vehicle | cell growth | 48%
OCc1ccc(Nc2ccc3c(Nc4cccc(C(F)(F)F)c4)ncnc3c2)cc1 | MCF7 | – | IC50, 24 h | – | G0/G1 phase cells | 5%
CCCCN1CCN(c2ccc3nc(-c4ccc5nc(-c6cc(OC)ccc6OC)[nH]c5c4)[nH]c3c2)CC1 | MCF7 | SRB | 10 µM, 48 h | – | growth percent | 82.4%
CC(=O)c1nn(-c2ccccc2Cl)/c(=N/N=C(\C)c2ccc(NC(=O)c3ccccc3)cc2)s1 | MCF7 | MTT | 1.25 µM | – | cytotoxicity | 93.7%
C=CC(=O)c1cccnc1Nc1cc(NC(=O)c2ccccc2)ccc1OC | MCF7 | firefly luciferase reporter | 25 µM, 6 h | reference: vehicle | TEAD reporter activity | 78.7 ± 7.7%
C#C[C@@]1(O)[C@@H](CO)O[C@@H](n2cc(Cl)c3c(N)ncnc32)[C@@H]1O | MCF7 | SRB | NCI-60 screen | – | TGI | 1040 nM and 1160 nM
Cc1nc(NC(=O)N2CCC[C@H]2C(N)=O)sc1-c1ccnc(C(C)(C)C(F)(F)F)c1 | MCF7 | cell growth, CellTiter-Glo | 120 h | – | Hill coefficient GR curve | 1.04

SMILES | target or system | assay | conditions | how to read | endpoint | value
Cc1cc(=O)[nH]c(=O)n1Cc1cn(-c2c3ccccc3nc3ccccc23)nn1 | MCF7 | NCI60 single-dose screen | 10 µM | – | growth percentage | 2.5%
CCOC(=O)c1nn(-c2cccc(Cl)c2)/c(=N/N=C(\C)c2ccc(NC(=O)c3ccc(Cl)cc3)cc2)s1 | MCF7 | MTT | 0.156 µM | – | cytotoxicity | 78.1%
C=CC(=O)c1ccccc1Nc1cc(C(F)(F)F)ccc1OC | MCF7 | firefly luciferase reporter | 25 µM, 6 h | reference: vehicle | TEAD reporter activity | 74 ± 3.8%
C=C1CN(S(=O)(=O)c2ccc(N(C)C)cc2)CCCN(CC2CCCCC2)CCCN(S(=O)(=O)c2cccc3ccccc23)C1.Cl | MCF7 | – | 1 µM, 48 h, with: progranulin 1 µg/mL | – | mammosphere formation | inhibited
CC(C)(C)OC(=O)NCCOc1ccc(Cl)cc1C(=O)N[C@@H](Cc1ccccc1)C(=O)Nc1ccc([N+](=O)[O-])cc1Cl | MCF7 | – | up to 10 µM, 72 h | – | antiproliferative activity | inactive
CC(=O)c1nn(-c2ccc(Cl)cc2)/c(=N/N=C(\C)c2ccc(NC(=O)c3ccccc3)cc2)s1 | MCF7 | – | 5 µM | – | toxicity | 95.6% and 95%
C=CC(=O)c1cccnc1Nc1cc(C)ccc1OC | MCF7 | firefly luciferase reporter | 100 µM, 6 h | reference: vehicle | TEAD reporter activity | 1.9 ± 0.3%
CCCN1CCN(c2ccc3[nH]c(-c4ccc5[nH]c(-c6cc(OC)c(OC)c(OC)c6)nc5c4)nc3c2)CC1 | MCF7 | SRB | 10 µM, 48 h | – | growth percent | 23.8%
Cc1ccc(C)c(-c2cc(NC(=O)CCl)n(-c3ccccc3)n2)c1 | UCHL1 | covalent, intact protein LC-MS | 12.5 µM | – | labelling | 13.8%
COc1ccc(-n2nc(C(C)=O)s/c2=N\N=C(/C)c2ccc(NC(=O)c3ccc(Cl)cc3)cc2)cc1 | MCF7 | – | 2.5 µM | – | viability | 6.47%
CCC(=O)c1cccnc1Nc1cccc(C(F)(F)F)c1 | MCF7 | firefly luciferase reporter | 100 µM, 6 h | reference: vehicle | TEAD reporter activity | 75.4 ± 6.7%
CCOC(=O)c1sc(=NN=C(C)c2c(O)c3ccccc3oc2=O)[nH]c1C | MCF7 | cell growth, MTT | – | reference: IC50 BJ-1 over MCF7 | selectivity index | > 15.6
C[C@H](Nc1ccc2c(c1)OCCn1cc(N3C(=O)OC[C@H]3C(F)F)nc1-2)C(N)=O | MCF7 | western blot, refers to: phospho-PKB/Akt Ser473 | 2 h | – | IC50 | 6.6 nM
CCn1cc(-c2cc(Cn3ccoc3=N)cc3c2CCN([C@@H](C)c2cc(OC)ccn2)C3=O)c(C(F)(F)F)n1 | MCF7 | cell growth, inhibitor | 120 h | – | EC50 | > 30000 nM
CC/C(=C(\c1ccccc1)c1ccc(OCCN(C)C)cc1)c1ccccc1 | MCF7 | RNA-seq, refers to: GREB1 mRNA | 1 µM, 24 h, E2-induced gene | reference: DMSO vehicle | log2 fold change | -3.65
CC(=O)c1nn(-c2ccc(C)cc2)/c(=N/N=C(\C)c2ccc(NC(=O)c3ccccc3)cc2)s1 | MCF7 | MTT | 10 µM | – | cytotoxicity | 93.5%
CC#CC(=O)N1CCC(CNC(=O)c2cccc(C(F)(F)F)c2)CC1 | UCHL1 | covalent, intact protein LC-MS | 12.5 µM | – | labelling | 15.9%
COc1ccc(-n2nc(C(C)=O)s/c2=N\N=C(/C)c2ccc(NC(=O)c3ccccc3)cc2)cc1 | MCF7 | – | 0.625 µM | – | toxicity | 97.3%
C=CC(=O)N1CCC(COCC(=O)N2CCN(c3nc(-c4cnc(N)nc4C(F)F)nc(N4CCOC[C@@H]4C)n3)CC2)CC1 | MCF7 | western blot, refers to: phospho-S6 Ser235/Ser236 | 2 h | – | IC50 | 50.3 nM
Cc1cc(-c2ccccc2)n(-c2nc(-c3ccc(Cl)cc3)c3c(NC(=O)c4ccccc4)nnc-3[nH]2)n1 | MCF7 | SRB | 10 µM, NCI60 single-dose screen | reference: untreated | cell growth | 58.3%
C=CC(=O)c1cccnc1Nc1cc(C(F)(F)F)ccc1C | MCF7 | firefly luciferase reporter | 100 µM, 6 h | reference: vehicle | TEAD reporter activity | 8.7 ± 0.2%
CC(=NN=C1SCC(=O)N1C)c1c(O)c2ccccc2oc1=O | MCF7 | cell growth, MTT | – | reference: IC50 BJ-1 over MCF7 | selectivity index | > 3.05
CCOC(=O)CSc1nc(-c2ccc(Cl)cc2)c2c(NC(=O)c3ccccc3)nnc-2[nH]1 | MCF7 | SRB | 10 µM, NCI60 single-dose screen | reference: untreated | cell growth | 92.6%
